Published values collected from several papers.
Numbered parts are unrelated; each lists some results of a single study.

Sample 1
Target: Sal-like protein 4, full length isoform A (SALL4, Homo sapiens, UniProt Q9UJQ4, residues 1-1053)
UniProt Q9UJQ4, sequence (whole entry, looked up): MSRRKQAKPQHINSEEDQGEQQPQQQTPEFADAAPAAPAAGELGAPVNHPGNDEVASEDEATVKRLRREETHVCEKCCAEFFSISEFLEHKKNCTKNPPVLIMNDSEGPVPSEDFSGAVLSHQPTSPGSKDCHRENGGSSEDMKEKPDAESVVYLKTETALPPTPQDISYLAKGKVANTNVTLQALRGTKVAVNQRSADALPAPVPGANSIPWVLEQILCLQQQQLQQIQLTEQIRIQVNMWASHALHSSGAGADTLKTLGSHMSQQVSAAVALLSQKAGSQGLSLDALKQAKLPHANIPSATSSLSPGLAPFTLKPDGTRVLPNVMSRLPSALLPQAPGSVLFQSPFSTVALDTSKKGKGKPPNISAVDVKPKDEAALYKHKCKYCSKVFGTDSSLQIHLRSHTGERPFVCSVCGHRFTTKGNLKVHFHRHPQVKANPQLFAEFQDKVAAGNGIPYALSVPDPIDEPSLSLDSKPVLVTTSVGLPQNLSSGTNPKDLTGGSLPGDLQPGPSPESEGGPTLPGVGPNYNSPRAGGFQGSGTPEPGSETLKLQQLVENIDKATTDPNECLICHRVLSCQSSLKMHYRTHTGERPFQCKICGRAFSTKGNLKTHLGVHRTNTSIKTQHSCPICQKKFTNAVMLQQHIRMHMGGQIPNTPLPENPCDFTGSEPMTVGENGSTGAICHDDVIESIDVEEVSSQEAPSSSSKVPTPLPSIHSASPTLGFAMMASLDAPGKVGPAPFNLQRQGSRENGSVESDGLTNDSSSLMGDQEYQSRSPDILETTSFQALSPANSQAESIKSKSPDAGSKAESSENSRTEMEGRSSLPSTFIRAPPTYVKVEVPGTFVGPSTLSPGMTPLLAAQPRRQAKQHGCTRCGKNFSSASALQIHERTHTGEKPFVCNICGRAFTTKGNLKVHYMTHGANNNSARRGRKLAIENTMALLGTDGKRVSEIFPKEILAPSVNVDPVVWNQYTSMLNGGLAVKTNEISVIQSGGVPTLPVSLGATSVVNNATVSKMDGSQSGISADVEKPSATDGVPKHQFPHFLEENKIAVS
Technique: universal PBM
Molecule type: double-stranded DNA, one strand shown
Medium: in vitro
Concentration: 600 nM
Setting: 8-mer, flanks averaged, mean of replicates
Direction: higher = stronger binding
With `AAGAGCCA` the E-score was -0.0558.
The E-score of `ACGTGAGT` is reported as -0.0585.
For `GTGGACAC`, the E-score was -0.132.
`CAACCTAA` has an E-score of 0.0339.

Sample 2
Target: Interferon regulatory factor 7, full length, phosphomimetic (IRF7, Homo sapiens, UniProt Q92985, residues 1-503, S471D/S472D/S475D/S476D/S477D/S483D/S484D/S487D)
Technique: protein-binding microarray
Molecule type: double-stranded DNA, one strand shown
Medium: in vitro
Concentration: 2200 nM top
Setting: 60-bp whole probe
Added: salmon DNA 0.4 mg/ml
Baseline: random background probes
Direction: higher = stronger binding
Constant ends, left off below: GCCTAGCAC … GTGCTAGGTCTTGATTCGCTTGACGCTGCTG
Residues (chain): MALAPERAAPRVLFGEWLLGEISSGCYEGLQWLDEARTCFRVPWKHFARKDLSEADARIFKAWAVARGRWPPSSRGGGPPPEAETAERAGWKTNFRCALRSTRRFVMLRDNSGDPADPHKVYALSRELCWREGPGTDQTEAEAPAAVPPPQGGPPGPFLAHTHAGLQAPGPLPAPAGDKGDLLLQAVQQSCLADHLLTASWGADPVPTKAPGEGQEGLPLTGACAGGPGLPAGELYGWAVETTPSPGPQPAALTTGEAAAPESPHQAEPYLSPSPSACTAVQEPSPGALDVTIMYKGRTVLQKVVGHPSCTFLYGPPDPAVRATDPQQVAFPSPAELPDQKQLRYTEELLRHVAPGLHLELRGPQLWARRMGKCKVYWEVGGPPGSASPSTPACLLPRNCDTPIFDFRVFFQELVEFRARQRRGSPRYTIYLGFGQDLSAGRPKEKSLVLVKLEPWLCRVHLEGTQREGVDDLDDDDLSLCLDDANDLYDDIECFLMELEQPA
For `CCCTGTGTCCACAGCTGGAT`, “fitted relative affinity” read -0.162 z-score.
`TCCAACCTGCTGAATCAAAA` — result for “fitted relative affinity”: 0.707 z-score.
`TCAATTGTGGATCTTGCACT`: “fitted relative affinity” 0.507 z-score.
For `GAAAACAAAGAAAATACAAA`, “fitted relative affinity” read -0.273 z-score.
`TTTTTTTTTTTTTGGAATGT`: “fitted relative affinity” 2.58 z-score.

Sample 3
Target: Histone acetyltransferase KAT6A, both winged helices, GST fusion (KAT6A, Homo sapiens, UniProt Q92794, residues 1-181)
Technique: protein binding microarray
Molecule type: double-stranded DNA, one strand shown
Medium: in vitro
Concentration: not given
Setting: 8-mer, flanks averaged, mean of 2 arrays, mostly near background
Baseline: not given
Direction: higher = stronger binding
Construct (chain): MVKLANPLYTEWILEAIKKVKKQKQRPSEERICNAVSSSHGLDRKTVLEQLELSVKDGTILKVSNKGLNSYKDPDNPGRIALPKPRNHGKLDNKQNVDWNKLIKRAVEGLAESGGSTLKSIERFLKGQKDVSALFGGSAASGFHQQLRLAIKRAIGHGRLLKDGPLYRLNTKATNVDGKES
For `TAGTCAGA`, the E-score was -0.118.
The E-score of `CAGGCGCC` is reported as 0.116.
The E-score of `AATAGAGT` is reported as -0.207.
With `CGCGAAAC` the E-score was 0.264.

Other studies, line by line
`PhoQ, residues 284 288 289 292 302 303 SQSLSM` has a fold induction of 10.3 (PhoP, residues 12 14 15 18 19 LYFRQ (Escherichia coli, UniProt P23836); Sort-seq, measured: YFP reporter; E. coli; PhoQ-PhoP variant library, added: 10 µM Mg2+; baseline: high Mg2+ state, higher = stronger signaling).

Repeated from above (sample 2):
For `GAAAACAAAGAAAATACAAA`, “fitted relative affinity” read -0.273 z-score.
`TCCAACCTGCTGAATCAAAA` — result for “fitted relative affinity”: 0.707 z-score.
